Assay results collected from several papers.
Each line is one published result; not all experiments were run side by side. Values joined by “and” are separate records of one study, mostly repeats; a detail may differ. ± gives the spread as reported.
Sequence of UniProt P35348 (whole entry, looked up): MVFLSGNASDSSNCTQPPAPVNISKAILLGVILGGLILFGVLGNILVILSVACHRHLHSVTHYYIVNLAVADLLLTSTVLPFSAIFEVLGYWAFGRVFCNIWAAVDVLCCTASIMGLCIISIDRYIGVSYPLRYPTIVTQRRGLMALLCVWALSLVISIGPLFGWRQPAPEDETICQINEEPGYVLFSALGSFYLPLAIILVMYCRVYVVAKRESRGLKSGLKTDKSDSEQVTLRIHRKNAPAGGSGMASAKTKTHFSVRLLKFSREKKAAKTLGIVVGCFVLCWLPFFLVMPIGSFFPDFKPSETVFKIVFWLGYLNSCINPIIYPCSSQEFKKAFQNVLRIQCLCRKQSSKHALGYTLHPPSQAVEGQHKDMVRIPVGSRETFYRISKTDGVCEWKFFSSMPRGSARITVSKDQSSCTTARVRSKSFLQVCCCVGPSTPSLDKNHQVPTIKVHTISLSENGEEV
Sequence of UniProt P43681 (whole entry, looked up): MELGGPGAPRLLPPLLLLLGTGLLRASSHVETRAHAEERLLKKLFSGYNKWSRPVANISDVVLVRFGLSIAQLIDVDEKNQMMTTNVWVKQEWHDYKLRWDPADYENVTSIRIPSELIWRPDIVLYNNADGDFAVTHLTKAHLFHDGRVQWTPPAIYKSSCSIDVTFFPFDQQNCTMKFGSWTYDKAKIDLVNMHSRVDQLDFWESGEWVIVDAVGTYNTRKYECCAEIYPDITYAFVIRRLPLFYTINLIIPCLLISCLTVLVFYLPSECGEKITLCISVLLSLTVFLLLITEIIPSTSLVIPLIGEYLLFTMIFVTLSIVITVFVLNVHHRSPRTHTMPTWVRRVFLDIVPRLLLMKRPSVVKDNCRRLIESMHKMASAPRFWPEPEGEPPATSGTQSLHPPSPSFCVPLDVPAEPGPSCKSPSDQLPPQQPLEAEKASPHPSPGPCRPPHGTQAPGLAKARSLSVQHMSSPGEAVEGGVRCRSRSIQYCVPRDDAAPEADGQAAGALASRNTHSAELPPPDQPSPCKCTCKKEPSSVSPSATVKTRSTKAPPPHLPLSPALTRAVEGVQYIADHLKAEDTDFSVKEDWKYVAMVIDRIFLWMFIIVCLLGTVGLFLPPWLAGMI
Sequence of UniProt P25105 (whole entry, looked up): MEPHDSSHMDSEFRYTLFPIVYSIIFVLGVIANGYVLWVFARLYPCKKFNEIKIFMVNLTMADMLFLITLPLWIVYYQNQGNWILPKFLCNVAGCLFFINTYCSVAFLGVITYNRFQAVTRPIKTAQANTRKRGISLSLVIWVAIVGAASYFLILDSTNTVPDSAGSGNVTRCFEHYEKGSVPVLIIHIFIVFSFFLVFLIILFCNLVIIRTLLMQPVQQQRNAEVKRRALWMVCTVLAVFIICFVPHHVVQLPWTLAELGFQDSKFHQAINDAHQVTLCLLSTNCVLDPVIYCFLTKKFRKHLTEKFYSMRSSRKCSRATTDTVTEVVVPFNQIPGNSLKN
Sequence of UniProt Q15059 (whole entry, unmodified, looked up): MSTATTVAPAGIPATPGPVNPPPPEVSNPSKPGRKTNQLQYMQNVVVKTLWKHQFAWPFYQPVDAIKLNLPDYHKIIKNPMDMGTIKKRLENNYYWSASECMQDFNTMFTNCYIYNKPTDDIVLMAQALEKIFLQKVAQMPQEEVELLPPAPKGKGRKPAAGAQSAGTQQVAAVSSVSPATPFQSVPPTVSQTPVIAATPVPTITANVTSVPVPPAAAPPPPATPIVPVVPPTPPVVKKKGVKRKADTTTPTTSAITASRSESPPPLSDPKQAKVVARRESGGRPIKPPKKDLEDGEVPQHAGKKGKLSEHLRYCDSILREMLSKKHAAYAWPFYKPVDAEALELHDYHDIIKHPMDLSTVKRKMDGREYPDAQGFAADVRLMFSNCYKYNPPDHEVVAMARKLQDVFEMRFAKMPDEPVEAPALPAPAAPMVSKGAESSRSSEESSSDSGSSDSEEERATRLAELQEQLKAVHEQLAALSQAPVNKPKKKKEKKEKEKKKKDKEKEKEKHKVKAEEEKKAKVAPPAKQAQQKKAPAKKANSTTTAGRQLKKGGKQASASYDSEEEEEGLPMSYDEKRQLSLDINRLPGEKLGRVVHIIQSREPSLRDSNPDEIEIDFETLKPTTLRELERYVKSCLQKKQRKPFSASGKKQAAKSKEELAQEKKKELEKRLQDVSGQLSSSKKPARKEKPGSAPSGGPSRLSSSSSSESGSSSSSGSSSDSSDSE
Sequence of UniProt Q9UHD2 (whole entry, looked up): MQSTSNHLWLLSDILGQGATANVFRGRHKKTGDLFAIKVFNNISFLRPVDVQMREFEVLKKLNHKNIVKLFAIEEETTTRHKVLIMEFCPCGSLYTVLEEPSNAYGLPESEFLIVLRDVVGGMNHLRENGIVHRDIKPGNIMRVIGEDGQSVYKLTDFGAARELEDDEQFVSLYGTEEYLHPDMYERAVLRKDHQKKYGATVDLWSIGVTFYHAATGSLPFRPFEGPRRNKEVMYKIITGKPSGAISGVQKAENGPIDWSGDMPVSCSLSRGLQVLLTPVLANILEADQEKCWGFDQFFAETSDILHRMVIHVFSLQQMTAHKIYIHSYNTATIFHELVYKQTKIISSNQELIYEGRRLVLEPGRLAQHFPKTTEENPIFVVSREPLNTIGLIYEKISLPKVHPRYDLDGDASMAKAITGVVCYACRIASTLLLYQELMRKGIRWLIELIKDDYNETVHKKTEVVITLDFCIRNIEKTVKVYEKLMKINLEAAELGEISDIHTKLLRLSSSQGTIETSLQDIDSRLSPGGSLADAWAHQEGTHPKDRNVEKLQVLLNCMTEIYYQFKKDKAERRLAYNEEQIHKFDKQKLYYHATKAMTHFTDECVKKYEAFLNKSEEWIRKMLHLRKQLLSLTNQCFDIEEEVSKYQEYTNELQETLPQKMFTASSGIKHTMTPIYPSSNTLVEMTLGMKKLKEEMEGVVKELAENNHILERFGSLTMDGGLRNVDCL
Sequence of UniProt P11362 (whole entry, looked up): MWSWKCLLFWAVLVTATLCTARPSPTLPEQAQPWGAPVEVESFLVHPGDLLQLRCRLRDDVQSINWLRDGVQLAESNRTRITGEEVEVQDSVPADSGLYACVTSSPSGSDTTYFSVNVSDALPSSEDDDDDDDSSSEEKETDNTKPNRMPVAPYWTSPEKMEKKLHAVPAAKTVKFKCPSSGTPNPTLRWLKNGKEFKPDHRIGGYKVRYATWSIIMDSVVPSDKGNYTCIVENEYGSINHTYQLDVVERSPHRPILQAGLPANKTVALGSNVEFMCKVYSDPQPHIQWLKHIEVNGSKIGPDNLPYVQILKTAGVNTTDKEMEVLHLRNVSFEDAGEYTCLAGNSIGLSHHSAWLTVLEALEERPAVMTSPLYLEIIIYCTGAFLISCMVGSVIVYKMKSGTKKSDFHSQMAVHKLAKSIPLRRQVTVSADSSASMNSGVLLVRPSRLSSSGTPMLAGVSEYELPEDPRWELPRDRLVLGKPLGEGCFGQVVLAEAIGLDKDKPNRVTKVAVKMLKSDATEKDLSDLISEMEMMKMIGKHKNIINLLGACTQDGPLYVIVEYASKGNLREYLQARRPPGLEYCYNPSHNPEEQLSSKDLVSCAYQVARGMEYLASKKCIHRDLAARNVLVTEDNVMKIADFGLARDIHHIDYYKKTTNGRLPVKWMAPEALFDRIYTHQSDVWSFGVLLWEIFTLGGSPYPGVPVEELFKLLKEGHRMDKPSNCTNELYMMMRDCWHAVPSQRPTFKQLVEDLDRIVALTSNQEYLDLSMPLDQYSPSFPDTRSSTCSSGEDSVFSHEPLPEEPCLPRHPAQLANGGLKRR
Sequence of UniProt P54760 (whole entry, looked up): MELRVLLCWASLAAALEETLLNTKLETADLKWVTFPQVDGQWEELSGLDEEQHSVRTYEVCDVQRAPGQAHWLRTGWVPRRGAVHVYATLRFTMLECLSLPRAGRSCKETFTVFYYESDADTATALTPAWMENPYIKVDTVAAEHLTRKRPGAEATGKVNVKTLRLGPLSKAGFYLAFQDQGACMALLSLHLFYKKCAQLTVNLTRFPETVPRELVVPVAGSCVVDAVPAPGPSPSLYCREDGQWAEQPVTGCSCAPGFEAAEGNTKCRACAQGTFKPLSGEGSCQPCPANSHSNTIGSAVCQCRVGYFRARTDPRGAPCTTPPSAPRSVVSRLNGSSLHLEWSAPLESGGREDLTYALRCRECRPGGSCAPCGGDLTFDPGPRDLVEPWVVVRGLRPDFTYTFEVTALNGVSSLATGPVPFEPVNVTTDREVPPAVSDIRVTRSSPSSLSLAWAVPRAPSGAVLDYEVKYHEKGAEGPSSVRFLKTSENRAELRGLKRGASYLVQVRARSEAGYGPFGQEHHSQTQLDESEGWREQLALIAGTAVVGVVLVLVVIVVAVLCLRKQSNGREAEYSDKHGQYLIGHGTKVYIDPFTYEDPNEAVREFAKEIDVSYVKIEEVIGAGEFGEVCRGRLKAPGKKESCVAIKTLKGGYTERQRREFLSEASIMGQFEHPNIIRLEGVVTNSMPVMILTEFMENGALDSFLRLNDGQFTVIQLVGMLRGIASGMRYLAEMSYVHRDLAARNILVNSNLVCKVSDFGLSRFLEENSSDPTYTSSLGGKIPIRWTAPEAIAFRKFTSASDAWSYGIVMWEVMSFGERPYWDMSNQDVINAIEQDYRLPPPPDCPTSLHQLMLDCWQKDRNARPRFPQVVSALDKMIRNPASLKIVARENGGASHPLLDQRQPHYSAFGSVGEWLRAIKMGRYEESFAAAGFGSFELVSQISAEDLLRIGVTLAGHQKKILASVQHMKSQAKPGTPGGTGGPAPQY

| SMILES | tested on | assay | system | conditions | how to read | measurement | result |
| --- | --- | --- | --- | --- | --- | --- | --- |
| CC(C)(C)C(=O)OCOP(=O)(OCOC(=O)C(C)(C)C)C1CCCN(O)C1=O (stereo not drawn) | MCF7 | – | – | – | – | log TGI | -5.41 log M |
| C[C@H](NCc1ccc(-c2ccc(C(F)(F)F)cc2)cc1)C(N)=O | PGR (Homo sapiens, UniProt P06401) | radioligand binding, SafetyScreen panel | – | 1 µM, added: 0.50 nM [3H]Progesterone | – | inhibition | -4% |
| CCc1nnc(-c2c(OC)cc(-c3cnc4cc(-c5cnn(C)c5)ccn34)cc2OC)o1 | ADRA1A (Homo sapiens, UniProt P35348) | antagonist radioligand, radioligand binding | – | 10 µM, SafetyScreen44 alpha 1 A | – | inhibition | 41% |
| Cc1ccc(NS(=O)(=O)c2c(C(=O)N3CCCCCC3)c(C)n(C)c2C)c(Cl)c1 | HaCaT | – | – | 0.412 µM, 60 h | – | viability | 97.4% and 98.5% |
| CN(C)[C@H]1C[C@@]23CC[C@@]4(O2)C(=CC[C@]2(C)[C@@H](c5ccc6ccncc6c5)CC[C@H]24)C=C3[C@@H](O)[C@@H]1O | PIK3CB (Homo sapiens, UniProt P42338) | cell-free assay, inhibitor | – | 1 µM | – | inhibition | 6.7% |
| Cc1cnc(C2CCOCC2)n1C1CCN(C(=O)Nc2ccccc2F)CC1 | Cholinesterase (BCHE, Homo sapiens, UniProt P06276) | enzyme activity, inhibitor, Ellman | – | 10 µM | – | inhibition | 27.8% |
| Cc1sc2c(c1C)C(c1ccc(Cl)cc1)=N[C@@H](CC(=O)OC(C)(C)C)c1nnc(C)n1-2 | Bromodomain-containing protein 3, BD2 (BRD3, Homo sapiens, UniProt Q15059) | isothermal titration calorimetry | – | 15 °C, reverse titration | – | ΔG | -4.93 kcal/mol |
| N[C@H](C(=O)N1CCCC1)C1CCN(c2nccc3c(-c4ncc(Cl)cc4Cl)cccc23)CC1 | FGFR1 (Homo sapiens, UniProt P11362) | kinase activity, inhibitor | – | 10 µM, added: ATP 1 mM | – | inhibition | 11.2% |
| CN[C@@H]1[C@H](O)[C@H](NC)[C@H]2O[C@]3(O)[C@H](O[C@@H]2[C@H]1O)O[C@H](C)C[C@H]3NC(=O)Cc1ccc(Cl)cn1 | PTAFR (Homo sapiens, UniProt P25105) | ligand displacement, radioligand | – | 10 µM | – | inhibition | 2% |
| O=C(O)c1ccccc1/C=N/Nc1nc(-c2ccccc2Cl)cs1 | AXL (Homo sapiens, UniProt P30530) | enzyme activity, inhibitor | – | 1 µM | – | inhibition | -11.9% |
| Cc1ccc2c(n1)c(-c1cccc(S(C)(=O)=O)c1)c(C)n2C/C(F)=C/CN | protein tyrosine kinase (human) | – | – | 10 µM | – | inhibition | 13% |
| COc1ccccc1-c1n[nH]c2nc(NC3CCN(C(=O)Cc4ccc(F)cc4F)CC3)ncc12 | – | bead binding, competition bead pull-down, item: LINJ.23.0410 | Leishmania donovani extract | 10 µM | baseline: vehicle | relative abundance | 0.97 |
| COc1ccc(F)cc1S(=O)(=O)Nc1cnc2c(c1)C(=O)NCCO2 | adrenergic alpha1B receptor | radioligand binding | – | 10 µM | – | inhibition | -2% |
| C/C(=N\OCCCN1CCCCC1)c1ccc(C(F)(F)F)cc1 | Neuronal acetylcholine receptor; alpha4/beta2 (Homo sapiens, UniProt P17787+P43681) | calcium influx, antagonist, FLIPR | – | 10 µM | – | inhibition | 11.5% |
| CC(C)[C@H]1NC(=O)C[C@H]2/C=C/CCSSC[C@@H](NC1=O)C(=O)N[C@H](Cc1cccc3ccccc13)C(=O)NCC(=O)O2 | EPHB4 (Homo sapiens, UniProt P54760) | enzyme activity, inhibitor | – | 10 µM | – | inhibition | -0.3% |
| COc1ccccc1N1CCN(CCCCN2CCCc3ccccc3C2=O)CC1 | HTR6 (Homo sapiens, UniProt P50406) | radioligand binding | – | concentration not given, added: [3H]LSD | – | inhibition | 22.8% |
| CS(C)(=O)=Nc1ccc(-c2ccc(-c3nc4cc(O[C@@H]5CO[C@H]6[C@@H]5OC[C@H]6O)[nH]c4cc3F)cc2)cc1 | CCKBR (Homo sapiens, UniProt P32239) | calcium signal, antagonist | – | 10 µM | – | inhibition | 13% |
| C[C@@]12C(=O)CC[C@H]1[C@@H]1CC=C3C[C@@H](O)CC[C@]3(C)[C@H]1C=C2c1cccnc1 | 7-alpha-hydroxycholest-4-en-3-one 12-alpha-hydroxylase (Homo sapiens, UniProt Q9UNU6, W281F) | inhibitor | – | 80 µM, added: 7α-hydroxycholest-4-en-3-one | – | inhibition | > 40% |
| Cc1cc(Nc2nc(C[C@@]3(C(=O)O)CCN(Cc4cccc(Cl)c4F)[C@H](C)C3)cc(C)c2F)[nH]n1 | HTR1A (Homo sapiens, UniProt P08908) | inhibitor | – | 10 µM | – | inhibition | -9.65% |
| O=C1NC(=O)c2c1c1cc(F)c[n+]3c1c1c2c2cc(O)ccc2[n]1[Ru-4]312([N]=C=S)[S+]3CC[S+]1CC[S+]2CC3 (stereo not drawn) | TBK1 (Homo sapiens, UniProt Q9UHD2) | enzyme activity | – | 100 nM, human enzyme, added: 10 µM ATP | baseline: untreated | remaining activity | 40% |
| COc1ccccc1-c1n[nH]c2nc(N[C@H]3CC[C@H](NS(=O)(=O)CC(C)C)CC3)ncc12 | – | bead binding, competition bead pull-down, item: LINJ.34.0870 | Leishmania donovani extract | 10 µM | baseline: vehicle | relative abundance | 1 |
| CC[C@H](C)[C@H](NC(=O)[C@H](CO)NC(=O)[C@H](Cc1ccc(O)cc1)NC(=O)[C@H](Cc1ccc(O)cc1)NC(=O)[C@H](CC(N)=O)NC(=O)CNC(=O)[C@H](CO)NC(=O)[C@H](Cc1ccc(O)cc1)NC(=O)[C@H](CO)NC(=O)[C@H](CO)NC(=O)[C@H](CC(N)=O)NC(=O)COCCOCCNC(=O)CN1CCN(CC(=O)O)CCN(CC(=O)O)CCN(CC(=O)O)CC1)C(=O)N[C@@H](CC(C)C)C(N)=O [copper-64 labelled] | – | dynamic PET | KPC mouse, pancreatic cancer model, tumor | intravenous, 0.1 min, 49 days after tamoxifen | – | tumour uptake | 0.115 %ID/mL |
| CN(/N=C/c1ccccc1C(=O)O)c1nc(-c2ccccc2Cl)cs1 | EPHA8 (Homo sapiens, UniProt P29322) | enzyme activity, inhibitor | – | 1 µM | – | inhibition | -10.8% |
| O=C1NC2(CC2)COc2ncc(F)cc2[C@H]2COCCN2c2ccn3ncc1c3n2 | – | – | Sprague-Dawley rat, female, serum | oral, 10 mg/kg/day, end of recovery, 4-week subacute toxicity | – | serum urea | 4.15 ± 0.55 mmol/L |

Some of these lines once more:
| SMILES | tested on | assay | system | conditions | how to read | measurement | result |
| --- | --- | --- | --- | --- | --- | --- | --- |
| C[C@H](NCc1ccc(-c2ccc(C(F)(F)F)cc2)cc1)C(N)=O | PGR (Homo sapiens, UniProt P06401) | radioligand binding, SafetyScreen panel | – | 1 µM, added: 0.50 nM [3H]Progesterone | – | inhibition | -4% |
| CCc1nnc(-c2c(OC)cc(-c3cnc4cc(-c5cnn(C)c5)ccn34)cc2OC)o1 | ADRA1A (Homo sapiens, UniProt P35348) | antagonist radioligand, radioligand binding | – | 10 µM, SafetyScreen44 alpha 1 A | – | inhibition | 41% |
| Cc1ccc(NS(=O)(=O)c2c(C(=O)N3CCCCCC3)c(C)n(C)c2C)c(Cl)c1 | HaCaT | – | – | 0.412 µM, 60 h | – | viability | 97.4% and 98.5% |
